Assay results from different studies.
Every numbered part comes from another study and shows a few of its results, in no order. Substitutions count along the parent as printed.

Sample 1
Target: CCNB1, cyclin fold, Cln2 fusion (human)
Technique: yeast growth competition, sequencing
Sample: yeast
Setting: weak parent motif
Relative to: not given
Direction: higher = stronger binding
Starting sequence: CDKN1B docking peptide (human); PSACRNLFGPVDH
| Substitution | normalised enrichment score |
| --- | --- |
| L7C | -0.321 |
| P1S | 0.0708 |
| N6T | 0.372 |
| C4Q | 0.000458 |
| P1K | 1.09 |
| G9K | 1.53 |
| A3R | 0.45 |
| H13F | 0.634 |
| N6Q | 0.913 |
| H13W | 0.68 |
| F8P | 0.369 |
| V11F | 0.79 |
| L7G | 0.325 |
| R5W | -0.141 |
| P10K | 0.364 |
| P1W | 0.358 |
| N6I | 0.432 |
| R5L | 0.316 |

Sample 2
Target: RNA binding protein fox-1 homolog 2, RRM domain, GST-SBP tag (RBFOX2, Homo sapiens, UniProt O43251-10, residues 100-194)
Technique: RNA Bind-n-Seq
Molecule type: RNA
Sample: in vitro
Tested at: 365 nM
Setting: natural RNA segment, single round, ends assumed
Relative to: no-protein control
Direction: higher = stronger binding
Constant ends, left off below: GGGAGUUCUACAGUCCGACGAUC … UGGAAUUCUCGGGUGCCAA
Residues (chain): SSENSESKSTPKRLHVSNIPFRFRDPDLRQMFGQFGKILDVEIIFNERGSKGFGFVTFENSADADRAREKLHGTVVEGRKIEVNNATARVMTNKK
| Strand | RBNS enrichment (R) |
| --- | --- |
| CCUAUCCCCCUGCCCCCGCCUCACACUACAGUUUAAGAUGUUGCCUCGUAUUGUACAUUUUGGGGAAAGCCUUGUGUGUAAAUCAGUGUAAACUUGGAGGAGAGAUUUUU | 1.14 |
| GAGAAAGAGAGUCUGGGCUGUGACCGAGUGCAUGUGUCCCACCCAGCCGGAAGGCCAGCGCCUGGGAUGGAGCCAGCAGAACCCCAUGCCGAGGUCCAGGAGGCCUUGCC | 5.38 |
| CUUGAGGUACUCCCUGAGCAGGACCCCACACUUGGGUGGGGGGGCUUAUCUGGGUGGGUGGGGAUGCCUGUUUACACUAGCGCUGACUCCCAACGGUGACGGCUCCCUUC | 0.493 |
| UCCAACCUGUCAGGCUGGCGCCUUAGAACUGAGCCUUAGGUUGGGCAGCGGGUCUCUGUCCUGGUAUUGAAUUUGCACAAGUGUGUGGUGACAUAUGUGCUUGUGGGCCA | 0.898 |
| UAUACUUCCCUAACCUGGAUCCCUGCUCUGCAAUGAGGUGGCCGUGGUUACACCAUCAUCUACCCUCUAGCUAGGGAUGAGGUGGAGGUAAAAUGCUCCCUGUGAGUUUG | 0.252 |
| UGCUGGACUAGCUUAAGACCAAUGCAGUAGCUUAUUUCCAAGCCUUGCAAAGUAUAUAAUAUCUAAGAGGAAAGGUUUUGUCAUCCCAGCGUUGUCCACUUUGUGGGGCU | 0.436 |
| UAUGCUGUUUAGUAUUCGUUUGAUAUUGUUACUUUUCACCUGUUGAGCCCAAAUUCAGGAUUGGUUCAGUGGCAGCAAUGAAGUUGCCAUUUAAAUUUGUUCAUAGCCUA | 0.333 |
| CCAGCCCCAGCCUCAGGGACGGGGAGGGAGAGCCCCCUCUGGGCCCAGCAGGCAGGUGUUCUGAGGCUGGUCCCUCCUCAGUUUCCGCAGCCACAAGGCGAAACGGCCAG | 0.322 |
| CUGCACGGCUAGGGAGUGUCAUCUCAGCUGAAGGCCUCACCCAAGACAGGCAGACAGACAUGAACAUUACUGAUGUGCUUUUCCGACCUGCUAUGUGCAGGCAGGCAGGG | 0.582 |
| GGGAAACAUUUUCCUAAGAUGCCCAUGAGAACAGACCAAGAUGUGUACAGCACUAUGAGCAUUAAAAAACCUUCCAGAAUCAAUAAUCCGUGGCAACAUAUCUCUGUAAA | 0.461 |
| CAAUAGAGCCCACCAACCACAUAGAAGUCCCCUGGCUAGAGUCUGAUGCCUGGUGGCUUACCGGACUUCUCAGUCAAUUCUGAAAGGUAUAUUUUGGGCACACAGUGAAA | 0.447 |
| CAGCUCAUGCUUUUUUAUGUAGGACUAGCUUACCUGAUUUUAAUGAAAAUCACAUUUUGAUACAAACACCAGAUUUGAAAGUUCAAUGUGUUUGAUCUCAGGAGUCCAAA | 0.35 |

Sample 3
Target: ABI1, truncated, D143A, DHFR fusion (Arabidopsis thaliana)
Technique: DHFR PCA, deep sequencing
Sample: yeast
Setting: methotrexate growth selection, single substitutions
With: (+)-ABA 2500 µM
Relative to: wild-type fitted maximum
Direction: higher = stronger binding
Starting sequence: PYL1, truncated, DHFR fusion (Arabidopsis thaliana); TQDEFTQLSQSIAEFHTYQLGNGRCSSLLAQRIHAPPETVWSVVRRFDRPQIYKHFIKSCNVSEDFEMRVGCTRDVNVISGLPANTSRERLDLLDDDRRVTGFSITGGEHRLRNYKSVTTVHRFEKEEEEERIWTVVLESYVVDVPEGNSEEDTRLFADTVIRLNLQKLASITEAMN; partner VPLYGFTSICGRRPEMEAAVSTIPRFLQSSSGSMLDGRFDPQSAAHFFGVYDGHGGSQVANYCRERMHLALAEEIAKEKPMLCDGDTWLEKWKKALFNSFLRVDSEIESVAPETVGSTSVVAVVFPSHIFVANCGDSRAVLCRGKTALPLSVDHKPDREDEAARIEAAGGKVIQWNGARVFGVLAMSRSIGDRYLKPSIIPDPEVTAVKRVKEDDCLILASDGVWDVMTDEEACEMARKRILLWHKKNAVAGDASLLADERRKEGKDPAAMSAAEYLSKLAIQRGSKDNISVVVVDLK
| Substitution | relative binding score [%] |
| --- | --- |
| V70K | 84.6 |
| T1R | 97.9 |
| L91D | -20.5 |
| T1H | 105 |
| S9P | 96.3 |
| S9M | 95.1 |
| L112F | 103 |
| A30Q | 98.9 |
| Q19T | 99 |
| S80W | 78.5 |
| I162H | 62 |
| L156E | 94.5 |
| L28E | 46.1 |
| P37K | 76.3 |
| D153G | 65 |
| I57D | 7.96 |
| N85L | 95.3 |

Sample 4
Target: Sal-like protein 4, full length isoform A (SALL4, Homo sapiens, UniProt Q9UJQ4, residues 1-1053)
Sequence of UniProt Q9UJQ4 (whole entry, looked up): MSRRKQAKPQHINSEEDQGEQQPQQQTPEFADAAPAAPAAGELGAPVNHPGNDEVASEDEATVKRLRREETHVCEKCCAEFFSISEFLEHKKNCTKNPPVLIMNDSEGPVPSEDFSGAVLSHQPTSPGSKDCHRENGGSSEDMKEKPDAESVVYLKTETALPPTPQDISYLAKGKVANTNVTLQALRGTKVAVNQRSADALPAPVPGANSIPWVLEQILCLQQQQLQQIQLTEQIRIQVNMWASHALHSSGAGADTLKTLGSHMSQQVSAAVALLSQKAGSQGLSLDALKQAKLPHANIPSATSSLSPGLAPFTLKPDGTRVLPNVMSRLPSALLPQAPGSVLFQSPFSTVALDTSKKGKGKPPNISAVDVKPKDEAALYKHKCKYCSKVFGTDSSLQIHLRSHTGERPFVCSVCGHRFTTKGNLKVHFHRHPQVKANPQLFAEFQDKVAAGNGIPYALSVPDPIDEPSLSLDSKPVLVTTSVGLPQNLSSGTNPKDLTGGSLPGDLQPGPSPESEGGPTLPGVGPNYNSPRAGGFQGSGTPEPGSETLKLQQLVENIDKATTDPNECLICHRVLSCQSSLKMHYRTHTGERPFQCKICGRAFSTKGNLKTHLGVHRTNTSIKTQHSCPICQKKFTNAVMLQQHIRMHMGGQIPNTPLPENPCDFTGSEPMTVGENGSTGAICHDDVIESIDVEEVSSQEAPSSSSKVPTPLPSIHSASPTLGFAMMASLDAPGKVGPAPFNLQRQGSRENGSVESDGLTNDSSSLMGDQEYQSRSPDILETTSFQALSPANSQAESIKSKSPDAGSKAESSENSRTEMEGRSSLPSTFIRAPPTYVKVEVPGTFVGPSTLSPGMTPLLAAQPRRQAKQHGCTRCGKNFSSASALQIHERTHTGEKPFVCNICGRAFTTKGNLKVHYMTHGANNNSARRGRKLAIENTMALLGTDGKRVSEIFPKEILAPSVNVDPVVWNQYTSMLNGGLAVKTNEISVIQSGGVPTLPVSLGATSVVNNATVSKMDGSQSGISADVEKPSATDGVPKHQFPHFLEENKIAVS
Technique: universal PBM
Molecule type: double-stranded DNA, one strand shown
Sample: in vitro
Tested at: 600 nM
Setting: 8-mer, flanks averaged, mean of replicates
Direction: higher = stronger binding
| Strand | E-score |
| --- | --- |
| CACATTAG | 0.0796 |
| GTGGTATA | 0.153 |
| AGGTTCTA | -0.0125 |
| CTCTTAGA | 0.008 |
| ATAGTGGA | 0.166 |
| ACCATCAC | 0.0201 |
| AAAAGGAC | 0.0132 |
| CGCGCGAG | -0.21 |
| ACCGACCT | -0.187 |
| CGTACCAC | -0.12 |
| CGATGCCA | -0.176 |
| GTCACGTA | 0.0313 |
| CTTCGTGC | -0.108 |
| ATAGGACC | -0.079 |
| CACGCCGC | -0.203 |
| CATGTCCC | -0.145 |
| CGGACGGA | -0.328 |
| AGATCGCC | -0.192 |

Sample 5
Target: Ras GTPase-activating protein-binding protein 1, full length (G3BP1, Homo sapiens, UniProt Q13283)
Sequence of UniProt Q13283 (whole entry, looked up): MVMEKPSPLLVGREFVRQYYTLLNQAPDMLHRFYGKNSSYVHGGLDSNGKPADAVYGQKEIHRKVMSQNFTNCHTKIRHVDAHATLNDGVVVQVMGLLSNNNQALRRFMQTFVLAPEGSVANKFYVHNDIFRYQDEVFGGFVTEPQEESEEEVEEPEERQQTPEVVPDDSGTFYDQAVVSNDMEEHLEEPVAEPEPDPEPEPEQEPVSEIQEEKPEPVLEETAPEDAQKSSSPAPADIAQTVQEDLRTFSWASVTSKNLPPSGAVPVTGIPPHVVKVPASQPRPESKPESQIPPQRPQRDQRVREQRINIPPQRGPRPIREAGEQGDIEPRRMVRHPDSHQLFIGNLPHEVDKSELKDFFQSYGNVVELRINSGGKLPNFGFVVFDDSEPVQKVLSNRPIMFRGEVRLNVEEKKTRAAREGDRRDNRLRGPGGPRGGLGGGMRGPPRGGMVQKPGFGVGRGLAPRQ
Technique: RNA Bind-n-Seq
Molecule type: RNA
Sample: in vitro
Tested at: 200 nM
Setting: whole 134-nt RNA, ends assumed
With: 150 mM LiCl
Relative to: input library
Direction: higher = stronger binding
Library: 7-deaza-guanosine replaces G
Constant ends, left off below: GGGAGUUCUACAGUCCGACGAUC … UGGAAUUCUCGGGUGUCAAGG
| Strand | log2 enrichment |
| --- | --- |
| UGUACUGAUGACAGCUAAUCUCUGAAUCUUUUUCCUCCAGGAUGUUCCUUCAGGAGGAAGCAGCACUAAAAGCACUCUGAGUCAAGAUGA | 0.467 |
| CAACUUUAGAGGAGGAUCUGAUGGAUAUGGCAGUGGACGUGGAUUUGGGGAUGGCUAUAAUGGGUAUGGAGGAGGACCUGGAGGUGGCAA | 0.282 |
| UAACUUUAGAGGAGGAUCUAAUGGAUAUGGCAGUGGACGUGGAUUUGGGGAUGGCUAUAAUGGGUAUGGAGGAGGACCUGGAGGUGGCAA | -0.0271 |
| UAACUUUAGAGGAGGAUCUGAUGGAUAUGGCAGUGGACGUGGAUUUGGGGAUAGCUAUAAUGGGUAUGGAGGAGGACCUGGAGGUGGCAA | 0.0764 |
| GCAGGAAGUAAAAAGAAAUGGAAAUGCUUCGGAUAGUGGCAGGGGUGGGGGUUGCUAAGGAAAGGGUGGGAUGGGAGUGGGUAAAGAGUU | -0.273 |
| CCUGUGCUACACAUCGUAUGUACCGAAUCGGGAAAAAAAGGGUUUUUUUGGGAAAAAGGGAAAGUAUUAUGUUACGCCGUUCGGAUCUGC | -1.65 |
| UCCUGUGCUACACAUCGUAUGUACCGAAUCGGGUUUUUUGGGUUUUUUGGUUUUUUGGGGAAAGUAUUAUGUUACGCCGUUCGGAUCUGC | -0.226 |
| UCAAGUCCUGUGCUACACAUCGUAUGUACCGAAUCGGGGUGGGGAGGGGUGGGGAAAGUAUUAUGUUACGCCGUUCGGAUCUGCACUUCC | -0.0287 |
| GCAGGAAGUAAAAACAAAUGGAAAUGCUUCGGAUAGUGGCAGGGGUGGGGGUUGCUAAGGAAAGGGUGGGAUGGGAGUGGGUAAAGAGUG | -0.616 |
| CAAGUCCUGUGCUACACAUCGUAUGUACCGAAUCAAAUUUAAAUUUAAACCCAAAAAAGUAUUAUGUUACGCCGUUCGGAUCUGCACUUC | 1.12 |
| UCAAGUCCUGUGCUACACAUCGUAUGUACCGAAUCGGGUGGGUUUUUGGGAGGGAAAGUAUUAUGUUACGCCGUUCGGAUCUGCACUUCC | 0.411 |
